Results gathered from unrelated publications.
Parts stem from different laboratories: compare values within a part only. “And” joins repeats or separate records; there may be more than shown.
UniProt Q9UQM7, sequence (whole entry, looked up): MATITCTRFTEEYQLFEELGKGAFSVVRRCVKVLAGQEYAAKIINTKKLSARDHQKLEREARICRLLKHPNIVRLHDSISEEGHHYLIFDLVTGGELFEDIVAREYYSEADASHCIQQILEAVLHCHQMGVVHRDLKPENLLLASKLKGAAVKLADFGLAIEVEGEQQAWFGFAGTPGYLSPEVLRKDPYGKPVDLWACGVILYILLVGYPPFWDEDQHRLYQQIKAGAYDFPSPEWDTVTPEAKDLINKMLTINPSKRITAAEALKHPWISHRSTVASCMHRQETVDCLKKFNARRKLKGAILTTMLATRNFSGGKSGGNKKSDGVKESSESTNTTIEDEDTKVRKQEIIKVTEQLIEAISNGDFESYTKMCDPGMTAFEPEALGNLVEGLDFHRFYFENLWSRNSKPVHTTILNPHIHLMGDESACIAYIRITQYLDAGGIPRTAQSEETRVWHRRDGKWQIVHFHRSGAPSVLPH

Sample 1 — species: human; sample: microsomes or S9; tested at: 2 µM; time: 0.5 h; quantity: remaining compound
COC(=O)[C@@]12Cc3ccccc3[C@@H](C1)N(C(C)(C)C)O2: 0.00757%
O=C1N=C(O)N=C(O)/C1=C\NNC(=O)c1ccccc1O: 88.8%
O=c1ccc2ccc3occc3c2o1: 37%

Sample 2 — cell line: mouse MPNST tumor cells; method: high-content nuclear imaging; item: cell number; tested at: 10 µM; time: 12 h; setting: mean of 2 replicates; reference: plate mean; direction: higher = more cells; quantity: nuclei count
C[C@]12CC[C@@H]3c4ccc(OC(=O)N(CCCl)CCCl)cc4CC[C@H]3[C@@H]1CC[C@@H]2O: -0.28 z-score
COc1ccc(CCN)cc1OC: 1.48 z-score
CC(C)CC(N)C1(c2ccc(Cl)cc2)CCC1 (stereo not shown): 2.67 z-score

Sample 3 — organism: Cryptosporidium parvum; species: neonatal calves; dose: dose not given; direction: direction not given; quantity: fecal consistency score
SMILES: CNC(=O)c1ccc(-c2cnn3ccc(C(=O)N(C)c4ccc(Cl)c(C(=O)OC)c4)cc23)cc1
day 4 post-treatment: 1 and 2
day 10 post-treatment: 1 and 2
day 12 post-treatment: 1 and 2
day 13 post-treatment: 1 and 2
day 11 post-treatment: 1
day 1 post-treatment: 1 and 3 and 2

Further values, each from its own experiment
COc1cc([C@H]2OC[C@@H]3[C@@H]2CO[C@H]3c2cc(OC)c(O[C@@H]3O[C@H](CO)[C@@H](O)[C@H](O)[C@H]3O)c(OC)c2)cc(OC)c1O[C@@H]1O[C@H](CO)[C@@H](O)[C@H](O)[C@H]1O  inhibition (Calcium/calmodulin-dependent protein kinase type II subunit alpha (CAMK2A, Homo sapiens, UniProt Q9UQM7); enzyme activity, inhibitor; 10 µM): 11%
